Experimental data from different studies.
Every numbered part comes from another study and shows a few of its results, in no order.

Sample 1
Target: RNA binding protein fox-1 homolog 2, RRM domain, GST-SBP tag (RBFOX2, Homo sapiens, UniProt O43251-10, residues 100-194)
Technique: RNA Bind-n-Seq
Form: RNA
Matrix: in vitro
Tested at: 365 nM
Setting: natural RNA segment, single round, ends assumed
Relative to: no-protein control
Reading: higher = stronger binding
Endpoint: RBNS enrichment (R)
All sequences stand within: GGGAGUUCUACAGUCCGACGAUC … UGGAAUUCUCGGGUGCCAA
Target sequence (chain): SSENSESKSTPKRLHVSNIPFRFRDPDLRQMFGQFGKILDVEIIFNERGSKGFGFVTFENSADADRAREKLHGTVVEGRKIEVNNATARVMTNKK
AACAAAAGGCUUUUGUUCAUACCAAAGGCUUUUGUGUGUGGAUGGGGGAGAGCCCCCCAGCUUCCUGCCACAGAGCACAGGCCUGUAUGUAGCUCAUAGUCCCCACAAUG: 0.365
GUACCCAAAUUAAAAUCCUGAUGUUCAGGUUAAUCCAAGCAACACGCAUUGGGUUUAAAACCAGCACCGAGGCCCAGUGGGGGAAUCACAGACAUCACCAAGUCUCGUCU: 0.288
CCCUUUGUUGCUGUCUGAGAAAGUGAAAGAUUGUGUAUUUCUAUUAAAACAUUUACAGUCAAAAUCCAAUAACUUGUGCUUAAACAUCAUUUAAUCUCAUGAGUUUUAAA: 0.414
CUCCCACAAAUAAGUUCCCAUUUCCUUGUCUAAAGAUCUUUUUUUAAGUGUUCUGUGGCUGAUUUACUAACAGUAACUGCCAUUUUUUGUCUGUGAUAACAGAGUGAUUU: 0.832
CAGGUCUGGGCAGGGGUCUGAUGGUCCACUGUGGGCUGUUUCCCUAUCCACCCCCCUCCUUGCUGGCCUACUCUGACAUAAUACAAGUGUCUUCUUGCCUUGAGGAACCU: 0.367
GCAGCCUCUCCUUGUCAUUCUCCCACCCCACAUCCCAUUUUUUAAAGCCCUUUUGGUAAAAACCAACAGGUUGUGGCCGCAGACCUCAGAUGGACCCGGCCCAUCCCUGG: 0.528
CAAGAGAGGUGCUAUCACAUAGAUCUAGUCUGAAGUCUGGAACACUUUCCUCUUCUAUGACCCCUCUCUCCCCAGUAUUAUCUUACUUGCAAAAUGGAGACCAAAUUCUA: 0.262
UGCCUAAUUUCUGUGAUUUCCAACCAACAUGAAAUGACUAUAAAUGGUUUUUUAAUGAAAAAAGAAAUCACUUUUAUUGGCUUGGUUUUCUAGCAUUGCUGGUGCAGUGG: 0.291
UGCAGGUCAGGGAAGGUUCUGGUGCUUUUCGUUUGAUCCAAAAGGAGCUGAGAGCCAGAAAUGUGGCUGUGAUUGCGAAAGAGACGGAGUUUGGGAGACCCAUGGAAGAA: 1.09

Sample 2
Target: Interferon regulatory factor 7, full length, phosphomimetic (IRF7, Homo sapiens, UniProt Q92985, residues 1-503, S101K/S471D/S472D/S475D/S476D/S477D/S483D/S484D/S487D)
Technique: protein-binding microarray
Form: double-stranded DNA, one strand shown
Matrix: in vitro
Tested at: 250 nM
Setting: 60-bp whole probe
With: salmon DNA 0.4 mg/ml
Relative to: random background probes
Reading: higher = stronger binding
Endpoint: log fluorescence
All sequences stand within: GCCTAGCAC … GTCTTGATTCGCTTGACGCTGCTG
Residues (chain): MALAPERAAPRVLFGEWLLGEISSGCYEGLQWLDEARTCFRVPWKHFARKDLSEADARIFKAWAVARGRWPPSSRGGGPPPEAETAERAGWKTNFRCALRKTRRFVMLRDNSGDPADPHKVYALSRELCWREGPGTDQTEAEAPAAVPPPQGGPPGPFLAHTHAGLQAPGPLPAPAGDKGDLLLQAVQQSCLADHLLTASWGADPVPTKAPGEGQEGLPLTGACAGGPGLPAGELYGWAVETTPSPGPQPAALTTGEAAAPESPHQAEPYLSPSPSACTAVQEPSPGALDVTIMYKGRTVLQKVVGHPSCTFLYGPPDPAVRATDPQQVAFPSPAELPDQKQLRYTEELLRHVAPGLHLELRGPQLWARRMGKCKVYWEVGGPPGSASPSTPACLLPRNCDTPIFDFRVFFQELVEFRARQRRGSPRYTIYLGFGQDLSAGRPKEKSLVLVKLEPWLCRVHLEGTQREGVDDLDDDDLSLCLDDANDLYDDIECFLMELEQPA
GACGGTTTGGGTCTCGGGACGTGCTAG: 0.31 z-score
TTAGGTCTGCTACTGCTTTAGTGCTAG: -0.503 z-score
GGGCCCTGCTGGGAAGTCAGGTGCTAG: -0.0548 z-score
ACAGAACTCAACTGTCTGCCTGTGCTA: -0.175 z-score
TTAGAACTGGGGGCTGGATTAGTGCTA: 0.762 z-score
GACGGACTGGCCTTTCGGGACGTGCTA: -1.05 z-score
TTTGGTATCGGGTTTCGGTTAGTGCTA: 7.63 z-score
TTAGGTCTCCATCTCCTTTAGTGCTAG: 0.319 z-score
TTAGGTATCGACACTGGGTAAGTGCTA: -0.0755 z-score
GACGATATCGGCTATCGAGACGTGCTA: -0.442 z-score
ACTCCTGTACATCTATGTAGGTGCTAG: 0.324 z-score
TCATATATATATTATATAACTGTGCTA: 0.726 z-score
TTAGATCTAAGTCTCGATTAGTGCTAG: 1.72 z-score
TTAGGACTGCGTTTCCTTTAGTGCTAG: 0.538 z-score
GACGGAATCCTTATCCTGACGTGCTAG: 0.095 z-score
TTAGATTTCAGTATCGTTTAGTGCTAG: 1.34 z-score
TTAGGACTGCCTCTCCTTTAGTGCTAG: -0.36 z-score
GACGAGCTGAGTATCGAGACGTGCTAG: -0.4 z-score
GACGGACTGCTCTTCCTGACGTGCTAG: -0.476 z-score
TTAGGTCACCTACTGCTTTAGTGCTAG: -0.036 z-score
GACGTACTGGGGTATCGGGACGTGCTA: 0.0915 z-score
TTAGGAATGGGTATCGGTTAGTGCTAG: 0.75 z-score
CTCAGGTAATATTTCCTGCTGTGCTAG: 0.00745 z-score
CATTTTATGGTATTTTTTTCGTGCTAG: 1.22 z-score
GACGAACTGGGGACTGGAGTCGTGCTA: -0.199 z-score

Sample 3
Target: RING finger protein unkempt homolog, zinc fingers 1-6, GST-SBP tag (UNK, Homo sapiens, UniProt Q9C0B0, residues 30-357)
Technique: RNA Bind-n-Seq
Form: RNA
Matrix: in vitro
Tested at: not given
Setting: RNA with constant flanks, ends assumed
Relative to: input RNA pool
Reading: higher = stronger binding
Endpoint: bound/input enrichment
All sequences stand within: GGGAGUUCUACAGUCCGACGAUC … CAACAGAGGAUUGAGCAUCA
Construct (chain): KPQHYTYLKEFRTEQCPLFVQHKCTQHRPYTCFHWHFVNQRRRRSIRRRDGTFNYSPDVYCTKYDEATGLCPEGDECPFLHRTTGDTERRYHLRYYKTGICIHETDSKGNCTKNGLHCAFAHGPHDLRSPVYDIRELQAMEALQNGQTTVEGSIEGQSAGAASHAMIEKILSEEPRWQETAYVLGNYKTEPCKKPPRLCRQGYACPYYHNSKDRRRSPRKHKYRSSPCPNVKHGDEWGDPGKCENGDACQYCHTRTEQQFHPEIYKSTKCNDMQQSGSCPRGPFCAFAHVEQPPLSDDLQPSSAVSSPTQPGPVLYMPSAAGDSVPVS
GAACCCUAGCACAAAUUUGCUUUGGGAUUUUCUUUUCUGGAAAAAAAAAAUAAAAGAAACCGUACAUUGAAAACAAAUGAAUUCUCAACUCCUACGGUUCAUGUAGAGUUUAGAGAAAAU: 1.77 ratio
CUUGAUUUGGUCCAUGGGAAACCACGAGACAACAAGCAAGCAGGGGUGUUUGAACCAACCACCGUUAAAGUGAAGAGCCUGAAGUUCGCAACAGAGGCUGCAAUCACCAUCCUUCGGAUU: 0.0717 ratio
GCCUCUUGCCUUUUUUUUUAAUUUUAAAUUAUCUAAAUUUAUUGUUUGUUAUGGUGUCAACCGCAGUGUUUUUCUAUCAGUUUUGUCACUCCUCCUACCCCACCUUGGACUCGUUUGAGA: 4.69 ratio
GAACCUGCUGAUGCAUCAGUAGUCCUGUGUAAAGAGCCCACCGCCUUUGAGGUUCCUCAGCUCCGUGUUUGUGGAGGUUCUGAAGACGCUGACAUAUUAUCCAGUUCAGGUCAUGACACA: 0.153 ratio
GACUUGGACCUUCCUGGGCUAGUGCAAAUAGCGGCAGUGGAGGCUCAAGAGGAAAGUUUGUCCGUGGAGGCAGUGGUAGAGGUCGUCAUGUACGCUCCUUUACACGAUAAAAAUCCUUUU: 0.0667 ratio
UGGGUUUGGGGUAGAAGGGUGGGAAGGGGCAGGAUAAGUGGAAUCUCUAGGGUGUAUGGGAAGCCGAGGGCAGUUAGUUCUAAGUGGGCUUUUAUGUUCCCUGUUGUGAGGGUGAGAACA: 32.5 ratio
UAGACCAAAAAUUCUGAUGACCACAUCUAGAUUAUUUUUCUAUAAAAAAAUGAUUUUCACUACCGCGAUGUCAGUCACCACUAAGCUACUGUCCAAUUCCAUGUGAUGUGUAACUUUUAC: 0.972 ratio
GGACAUGAUUUGAGGGUGGGAACCUCGCAAGUUGUGACCUCUUGUUAACUUGGUCCCCAGAUCCGCCGGCCUUGGCCUUUCCAGCUGCCUUCAGUGCUGCGUGUUUGGUUCUCAGUUGUA: 0.17 ratio
UUUUGUAUUGUACAUAAAAUUACCUAGAAAUGCACUUUUCCUCCAAAAUGUAGGUUCGUGAACCGACUUAGCAUGAUGAAGCUGUCUUUACAGUGAAUGCUUACCCUGUGUAGAGAAAGC: 1.61 ratio
CCAUGUUUGCCAAAGGCAAAGGCUCGGCGGUGCCCUCGGACGGGCAGGCUCGGGAAAAGUCCGCUUUAUACGUCUACGAAUAUUUACUGCACGUAGGAGCACAGAAAUCUGCACAGACCU: 0.108 ratio
GACUCCACAGAUUGUGAGUGUGUGAGUGUGUGUGUGAGUGAGAGAAAAAGAGAGAGAUGGUCCGUCUGUUUAACCUGUCUGUCUAUCUGUCAUUUCUUCCUCUGGACCUGGGGCAGCCAA: 0.354 ratio

Sample 4
Target: Ras GTPase-activating protein-binding protein 1, full length (G3BP1, Homo sapiens, UniProt Q13283)
UniProt Q13283, sequence (whole entry, looked up): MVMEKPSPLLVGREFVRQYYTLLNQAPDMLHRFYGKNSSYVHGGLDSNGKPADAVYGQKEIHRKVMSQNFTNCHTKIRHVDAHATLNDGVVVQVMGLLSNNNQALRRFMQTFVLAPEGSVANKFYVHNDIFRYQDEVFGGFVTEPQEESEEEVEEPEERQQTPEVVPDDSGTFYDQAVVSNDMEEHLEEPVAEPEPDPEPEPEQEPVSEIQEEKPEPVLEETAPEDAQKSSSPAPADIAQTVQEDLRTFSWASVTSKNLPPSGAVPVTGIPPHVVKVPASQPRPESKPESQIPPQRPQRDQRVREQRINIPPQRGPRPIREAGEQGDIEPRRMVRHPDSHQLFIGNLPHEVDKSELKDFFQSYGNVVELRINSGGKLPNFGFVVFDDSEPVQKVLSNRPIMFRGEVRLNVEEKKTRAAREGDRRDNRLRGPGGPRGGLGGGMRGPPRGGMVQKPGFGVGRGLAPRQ
Technique: RNA Bind-n-Seq
Form: RNA
Matrix: in vitro
Tested at: 200 nM
Setting: whole 134-nt RNA, ends assumed
With: 150 mM LiCl
Relative to: input library
Reading: higher = stronger binding
Endpoint: log2 enrichment
All molecules: 7-deaza-guanosine replaces G
All sequences stand within: GGGAGUUCUACAGUCCGACGAUC … UGGAAUUCUCGGGUGUCAAGG
ACCAUGCAGGUGGGCAUCUUGGGGAAGUGGGGCAAGGGGGGGAUAGGGAGGGGGGUAACACUUUGGGAACAGGUGGUCCCAGGUCGUUUC: 0.169
ACCAUGCAGGUGGGCAUCUUUGGGAAGUGGGUCAAGGGGGGGAUAGGGAGGGGGGUAACACUUUGGGAACAGGUGGUCCCAGGUCGUUUC: 0.287
UGGGAGGUGGAUUUUGUUUAUUUUUUUAGCUCAUUUCCAGGGGUGGGAUUUUUUUUUUAAUAUGUGUCAUGAAUAAAGUUGUUUUUGAAA: -0.348
UCAAGUCCUGUGCUACACAUCGUAUGUACCGAAUCGGGUUUGGGUUUGGGUUUGGAAAGUAUUAUGUUACGCCGUUCGGAUCUGCACUUC: -0.201
CUCAAGUCCUGUGCUACACAUCGUAUGUACCGAAUCGGCCGGGGCCGGCCGGGAAAGUAUUAUGUUACGCCGUUCGGAUCUGCACUUCCA: 0.593
CCAGGAAGUAAAAACAAAUGGAAAUGCUUCGGAUAGUGGCAGGGGUGGGGGUUGCUAAGGAAAGGGUGGGAUGGGAGUGGGUAAAGAGUU: 0.157
CACAGACAACACGCACCCACACAGACACAGAGGGAAGGGGUUGGGAUGGGGACAGGGAAAACAGCAGGGCGGGGUAGGACCCCAGCCCCU: -0.581
UCCUAGUCCUAGGAAAACUCCAGUUGCCAGUGAUCAACGCCGUAGGUCCUGCAAAACAGCCCCUGCUUCCAGCAGCAAAUCUCAGACAGA: 0.0836

For quick reference, copied from above (sample 2):
CATTTTATGGTATTTTTTTCGTGCTAG: 1.22 z-score
TTAGGTCTGCTACTGCTTTAGTGCTAG: -0.503 z-score
GACGGTTTGGGTCTCGGGACGTGCTAG: 0.31 z-score
